# Assay results pooled from the literature.
# A part holds a random share of what one study measured.

# Series 1 — method: universal PBM; molecule type: double-stranded DNA, one strand shown; medium: in vitro; concentration: not given; reading: higher = stronger binding
# Target: Sal-like protein 4, full length isoform B (SALL4, Homo sapiens, UniProt Q9UJQ4-2, residues 1-616)
# Notes: 8-mer, flanks averaged, mean of replicates
# Construct (chain): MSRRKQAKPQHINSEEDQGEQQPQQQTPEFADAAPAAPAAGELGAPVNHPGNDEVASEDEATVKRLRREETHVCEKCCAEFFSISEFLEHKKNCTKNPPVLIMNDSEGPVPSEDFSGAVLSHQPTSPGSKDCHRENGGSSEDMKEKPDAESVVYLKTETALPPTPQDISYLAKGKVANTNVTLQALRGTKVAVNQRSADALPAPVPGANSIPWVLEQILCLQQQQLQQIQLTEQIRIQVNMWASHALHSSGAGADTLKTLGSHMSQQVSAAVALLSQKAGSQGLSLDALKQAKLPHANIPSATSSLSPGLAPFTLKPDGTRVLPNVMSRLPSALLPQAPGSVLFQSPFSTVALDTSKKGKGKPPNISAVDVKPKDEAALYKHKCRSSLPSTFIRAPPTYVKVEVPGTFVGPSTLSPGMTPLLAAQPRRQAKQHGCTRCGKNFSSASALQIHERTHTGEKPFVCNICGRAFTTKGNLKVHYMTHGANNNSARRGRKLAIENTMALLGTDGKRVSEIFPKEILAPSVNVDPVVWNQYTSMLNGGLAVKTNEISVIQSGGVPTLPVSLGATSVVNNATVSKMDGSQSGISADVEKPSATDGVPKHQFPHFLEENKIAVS
Sequence,E-score
TATGCCAA,0.18
CTTCGGAC,-0.0623
CACCTGGG,-0.238
TCACTTAA,0.216
CGTACCGC,-0.184
AACACTTC,0.0133
GACTTTAA,0.179
CAGGTAAC,0.0826

# Series 2 — cell line: HEK-293T/ACE2; concentration: concentration not given; time: 16 (unit not given); baseline: vehicle
Compound,viability [%]
C[C@@H](c1ncncc1F)[C@](O)(Cn1cncn1)c1ccc(F)cc1F,101
N#Cc1ccc(C(c2ccc(C#N)cc2)n2cncn2)cc1,101
CC(=O)NCCCS(=O)(=O)O,101
O=C(CCCCC(=O)Nc1c(I)cc(I)c(C(=O)O)c1I)Nc1c(I)cc(I)c(C(=O)O)c1I,104

# Series 3 — read-out: enzyme activity; mode: inhibitor; concentration: 20 µM
# Target: Replicase polyprotein 1ab, polymerase (rep, Severe acute respiratory syndrome coronavirus 2, UniProt P0DTD1)
SMILES,inhibition [%]
Oc1ccc(C(O)CNCCCCCCNCC(O)c2ccc(O)c(O)c2)cc1O (stereo not shown),-0.42
CC(=O)Nc1cccc(Nc2ncnc(N3CCC(OCc4ccc(OC(F)(F)F)cc4)CC3)n2)c1C,-6.91
N[C@@H](C(=O)O)c1nn[nH]n1 (racemic),-7.92
CC(=O)O[C@]1(C(C)=O)CC[C@H]2[C@@H]3C[C@H](C)C4=CC(=O)C=C[C@]4(C)[C@@]3(F)[C@@H](O)C[C@@]21C,-4.49
Cc1cc(O)c(-c2ccc([C@@H](C)CN)cc2)c2c1[nH]c(=O)c1sccc12,6.09
N#Cc1cn([C@@H]2O[C@H](CO)[C@@H](O)[C@H]2O)c2ncnc(N)c12,2.67
O=C(O)c1ccccc1Nc1cc(Cl)ccc1C(=O)O,3.99
CC(=O)c1cc([N+](=O)[O-])c(Sc2ccc(F)cc2F)s1,-0.8
FC(F)(F)c1ccc(CNc2ccc(Cc3c[nH]c4ncc(Cl)cc34)cn2)cn1,-4.86
CCCCCCCCCCCCCCCCCCCCCCO,-4.34
O=C1CC2(CCCC2)CC(=O)N1CCCCN1CCN(c2ncccn2)CC1,1.98
N#CC(c1ccnc(OCc2ccc(CN3CCOCC3)cc2)n1)c1nc2ccccc2s1 (stereo not shown),-3.49
CC(C)(NS(=O)(=O)c1ccc(Oc2ccc(F)cc2)cc1)C(=O)NO,1.93
CC(=O)NS(=O)(=O)c1ccc(NC(=O)c2ccccc2C(=O)O)cc1,-2.85
COc1ccc2nc(SCc3ncc(C)c(OC)c3C)[nH]c2c1,0.25
CC(=O)Nc1cccc(-n2c(=O)n(C3CC3)c(=O)c3c(Nc4ccc(I)cc4F)n(C)c(=O)c(C)c32)c1,-2.08
CCn1c(N)c(C(=O)NC)c(=O)c2ccc(C#C[C@@](C)(O)COC)nc21,3.57
O=P(O)(O)C(Cl)(Cl)P(=O)(O)O,-5.31
C[C@H](NC[C@H](O)CP(=O)(O)Cc1ccccc1)c1ccc(Cl)c(Cl)c1,-0.64
CC1Sc2c(C(=O)O)c(=O)c3cc(F)c(N4CCNCC4)cc3n21 (stereo not shown),-3.66

# Series 4 — read-out: enzyme activity; mode: inhibitor; concentration: 20 µM; notes: hit confirmation
# Target: Replicase polyprotein 1ab, main protease (rep, Severe acute respiratory syndrome coronavirus 2, UniProt P0DTD1)
SMILES,inhibition [%]
CCC(C)SSc1ncc[nH]1 (stereo not shown),99.8
COc1cc(Br)c(Nc2nc(-c3c(C)nc4ncccn34)cs2)c(Br)c1,-3.5
Cc1ccsc1C(=CCCN1CCC[C@@H](C(=O)O)C1)c1sccc1C,-7.7

# Series 5 — method: RNA Bind-n-Seq; molecule type: RNA; medium: in vitro; concentration: 365 nM; baseline: no-protein control; reading: higher = stronger binding
# Target: RNA binding protein fox-1 homolog 2, RRM domain, GST-SBP tag (RBFOX2, Homo sapiens, UniProt O43251-10, residues 100-194)
# Notes: natural RNA segment, single round, ends assumed
# Shared flanks, not repeated: GGGAGUUCUACAGUCCGACGAUC … UGGAAUUCUCGGGUGCCAA
# Target sequence (chain): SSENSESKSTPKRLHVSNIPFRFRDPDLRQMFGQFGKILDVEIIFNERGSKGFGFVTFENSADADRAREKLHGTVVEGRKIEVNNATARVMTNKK
Sequence,RBNS enrichment (R)
UGCCUCCGUCUCCUAGUGAUAAUGCUCCAAGUCUAUGAACUGUUAAAUCAGCAUUCAUUUUAAGAAAAGCAACUUUAGUUUCAAAGAUACUUUUAAGCUUCUAAAUUGAU,0.624
CAUCCCUUCUCCCACCUCCUCCCCUCUCCCUCCCCCUGGAGACCCUGGAAGUGGUGUGUUCACAUACAGUGACCCUUGGCCACCAGACCACAGAGGAUGGAGCCUGGGAA,0.393
AGGGCCAGAUUUUCAGCAGCCAAGGACAUCCAUACCCAAGUGAAUGUGAUGGGGCUUCAAGACGUGAACUGAGACAAUUCACUCUGGCUGUUUGAACAGCAGCGUUUCAU,0.642
AGAGGCGCCGCACUAGACACCUCAUCCUCAGGUGGCCACAGAGAUGCUCCAACUGCCUGUCUCCAGGUCCCUGGGUGAAUGUGGCCAUCCAGCAGAGAUGCUAGUGGGGC,0.533
UCAGAUGAUUGGGGCAGAAAAGGCAGGGUGGCCCACACCUGCUCUGACUGCUAGCUUCCCACAGAUCCAUGUCUAGAAUACCAGUGUGCUCAGGAAAAGGAAGUCAUUUC,0.413
CCUUUAGUUCGGGGUUAGCUCCCAGAACUGCCCUGCACCAUAAGCUGGUGAUUCUCCAUGCCUGUCCUUACCCCGGAUCUGGCUAUUCCCGUGAUGCCAUUUGGAGGGGA,1.36
CUUGAGUUAAUCAACCACUGGCAAAUCCCAUUUGACAAAGAUUAGCAUUGUAAAAAACAGAUACUGUGGUAGAUUUCUAGAAAUUCAUUCACAUUUAAGACUUCUAAAAU,0.455
AUCUAUGAGCCCCCUCUCUCAUUCUGUGAUGGGUAUAGCAGAAACCUUCCUGCUUUUCACCAGGAACUCUAGACUGGACGCAGUCUUCUUCCUACUGGCUGGGGUUUCUC,0.25

# Repeated from above (series 2):
Compound,viability [%]
O=C(CCCCC(=O)Nc1c(I)cc(I)c(C(=O)O)c1I)Nc1c(I)cc(I)c(C(=O)O)c1I,104
C[C@@H](c1ncncc1F)[C@](O)(Cn1cncn1)c1ccc(F)cc1F,101
CC(=O)NCCCS(=O)(=O)O,101
